Experimental data collected from several papers.
Protocols differ between the studies behind these lines. Numbers after ± are the reported error.

| Compound | test | system | conditions | solubility |
| --- | --- | --- | --- | --- |
| N#Cc1ccc([C@@H]2COC[C@H](c3cccnc3)N2)cc1 | shake-flask, LC-HRMS | aqueous buffer | 16 h, pH 6.8 | > 750 µM |
| CC[C@@H]1NC(=O)[C@H](CC(C)C)NC(=O)CN(C)C(=O)CNC(=O)[C@@H](CC(C)C)NC(=O)[C@@H](Cc2ccc(O)cc2)NC(=O)CSC[C@@H](C(=O)O)NC(=O)[C@H](C(C)C)NC(=O)[C@H](CC(C)C)NC(=O)[C@H](C)NC(=O)[C@H]([C@@H](C)CC)NC1=O |  | HBSS | pH 7.4 | 138 µM |
| Cc1nonc1Cn1nnc2c(N3CC[C@H](O)C3)nc(C(C)(C)C)nc21 | LYSA |  |  | 44 ± 2 µg/mL |
| CC[C@H](C)[C@H](NC(=O)[C@H](C)NC(=O)[C@H](CCC(=O)O)NC(=O)[C@H](CCC(=O)O)NC(=O)[C@H](CC(C)C)NC(=O)[C@H](CCCCN)NC(=O)[C@H](CCCCN)NC(=O)[C@H](CCSC)NC(=O)[C@H](CCC(=O)O)NC(=O)[C@H](Cc1ccc(O)cc1)NC(=O)[C@H](CCC(=O)O)NC(=O)[C@H](CC(C)C)NC(=O)[C@H](CC(=O)O)NC(=O)[C@H](CC(C)C)NC(=O)[C@H](Cc1ccccc1)NC(=O)[C@@H](NC(=O)[C@@H](NC(=O)[C@H](CC(N)=O)NC(=O)[C@@H](NC(=O)[C@H](CCC(N)=O)NC(=O)[C@H](CC(=O)O)NC(=O)[C@H](CC(C)C)NC(=O)[C@@H](N)CO)[C@@H](C)CC)C(C)C)[C@@H](C)O)C(=O)N[C@@H](CCCCN)C(=O)N[C@@H](CCCCN)C(=O)N[C@@H](CC(C)C)C(=O)N[C@@H](CCC(=O)O)C(=O)N[C@@H](CCC(=O)O)C(=O)N[C@@H](CO)C(=O)N[C@@H](Cc1ccc(O)cc1)C(=O)N[C@H](C(=O)N[C@@H](CC(=O)O)C(=O)N[C@@H](CC(C)C)C(=O)N[C@@H](CCCCN)C(=O)N[C@@H](CCC(=O)O)C(=O)N[C@@H](CC(C)C)C(=O)O)[C@@H](C)CC |  | water |  | 21000 ± 1150 µM |
| COC1=CC(c2ccc[nH]2)=N/C1=C\c1[nH]c(-c2ccc(Cl)cc2)cc1-c1ccc(Cl)cc1 |  | potassium phosphate buffer | 1.5 h, pH 7.4, room temperature, 100 mM buffer | 52.8 µM |
| COc1ccc(-c2oc3cc(OC)cc(OC)c3c(=O)c2OC)cc1 | HPLC | ethanol:butylene glycol 100:0 |  | 6250 ± 69 ppm |
| CC(C)N(Cc1ccccc1)C(=O)C(C)(C)C |  | PBS | 2 h, pH 7.4, 25 °C | 324 µM |
| CCOC(=O)N1C[C@H](CC(C)C)N[C@H](c2ccc(C)nc2)C1 | shake-flask, LC-HRMS | aqueous buffer | 16 h, pH 6.8 | > 750 µM |
| COC1=CC(c2ccc[nH]2)=N/C1=C\c1cc(Cc2ccc(Cl)cc2)c(C)[nH]1.Cl |  | potassium phosphate buffer | 1.5 h, pH 7.4, room temperature, 100 mM buffer | < 3.13 µM |
| CC=CCC(C)C1OC(=O)C(C(C)C)N(C)C(=O)C(CC(C)C)N(C)C(=O)C(CC(C)C)N(C)C(=O)C(C)NC(=O)C(C)NC(=O)C(CC(C)C)N(C)C(=O)C(C(C)C)NC(=O)C(CC(C)C)N(C)C(=O)CN(C)C(=O)C(CC)NC(=O)C1NC (stereo not shown) |  | HBSS | 18 h, pH 7.4 | 91.2 µM |
| O=c1ccn([C@@H]2O[C@H](CO)[C@@H](O)[C@H]2O)c(=S)[nH]1 |  | simulated gastric fluid | 4 (unit not given), pH 1.2, 37 °C | 78 µM |
| CN(C)S(=O)(=O)NCC1CCOC2(CCN(C(=O)C3(c4ccncc4)CCCC3)CC2)C1 (stereo not shown) |  |  | pH 7.4 | 180 µM |
| COc1ccc(-c2cccc(Nc3cc(=O)n(O)c(=O)n3C)c2)cc1 |  | aqueous buffer | 2 (unit not given), pH 7.2 | 32.9 ± 0.92 µM |
| Cc1ccc(C2(C(=O)N3CCC4(CC3)CC(CNS(C)(=O)=O)CCO4)CCCC2)cc1 (stereo not shown) |  |  | pH 7.4 | 160 µM |
| CSCC[C@H](NC(=O)[C@H](CCC(=O)O)NC(=O)[C@@H]1CCCN1C(=O)[C@@H](NC(=O)[C@@H]1CCCN1)[C@@H](C)O)C(=O)N[C@@H](CCCNC(=N)N)C(=O)N[C@@H](CCC(=O)O)C(=O)N[C@@H](CCCCN)C(=O)N[C@@H](CC(C)C)C(=O)N[C@H]1CSSC[C@@H]2NC(=O)[C@@H](NC(=O)[C@H](Cc3ccc(O)cc3)NC(=O)[C@H](CCCNC(=N)N)NC(=O)[C@H](C)NC(=O)[C@@H]3CCCN3C(=O)[C@H](CC(N)=O)NC(=O)[C@@H](NC(=O)[C@H](C)NC(=O)[C@H](C)NC(=O)[C@H](C)N)[C@@H](C)O)CSSC[C@H](NC(=O)CNC(=O)[C@H](CO)NC(=O)[C@H](CC(C)C)NC2=O)C(=O)N[C@@H]([C@@H](C)O)C(=O)N[C@@H](CCC(N)=O)C(=O)N[C@@H](CCC(N)=O)C(=O)N[C@@H](CC(=O)O)C(=O)N[C@@H](CC(C)C)C(=O)N[C@@H](CC(C)C)C(=O)N[C@@H]([C@@H](C)O)C(=O)N[C@@H](CC(C)C)C(=O)N[C@H](C(=O)N2CCC[C@H]2C(=O)N[C@@H](Cc2ccc(O)cc2)C(=O)O)CSSC[C@@H](C(=O)NCC(=O)NCC(=O)N2CCC[C@H]2C(=O)N[C@@H](CCCNC(=N)N)C(=O)N[C@@H](Cc2c[nH]c3ccccc23)C(=O)N[C@@H](CO)C(=O)N[C@H](C(=O)N[C@@H](CCC(=O)O)C(=O)N[C@@H](C)C(=O)O)[C@@H](C)O)NC(=O)[C@H](C(C)C)NC(=O)[C@H](CCCNC(=N)N)NC(=O)[C@H](C(C)C)NC(=O)[C@H](CC(C)C)NC(=O)[C@H](C)NC(=O)[C@H](CCCNC(=N)N)NC(=O)[C@H](C(C)C)NC(=O)[C@H](Cc2ccccc2)NC(=O)[C@H](Cc2c[nH]cn2)NC(=O)[C@H](Cc2c[nH]cn2)NC(=O)CNC1=O |  | water | pH 5 | > 1200 µM |
| C=C(C)c1ccc(OCCc2cccc(F)c2)c(C(N)=O)c1 |  | PBS | 30 (unit not given), pH 7.4 | 25 µM |
| Cn1c(=O)cnc2ccc(F)c(CCNC[C@H]3CN(c4cnc5c(n4)NC(=O)CO5)C(=O)O3)c21 |  | aqueous buffer |  | 105 µM |
| CC(C)(C)C(=O)NNCc1ccccc1 |  | PBS | 2 h, pH 7.4, 25 °C | ≥ 400 µM |
| CC1(C(=O)N2CCC3(CC2)CC(CNS(C)(=O)=O)CCO3)CCCC1 (stereo not shown) |  |  | pH 7.4 | 110 µM |

| Compound | test | system | conditions | solubility |
| --- | --- | --- | --- | --- |
| COC(=O)OCOc1c2n(ccc1=O)N([C@@H]1c3ccccc3SCc3c1ccc(F)c3F)[C@@H]1COC3(CC3)CN1C2=O |  |  | pH 7 | 3 µg/mL |
| O=C(NCCCNc1nc(Nc2cccc(NC(=O)N3CCCC3)c2)ncc1I)c1cccs1 |  | aqueous buffer | 24 h, pH 7.4, 37 °C | < 1 µg/mL |
| NC(=O)c1cccc2c1O/C(=C\c1ccc(C(=O)NCCc3nc4ccccc4[nH]3)s1)C2=O | saturation solubility |  | 24 h, pH 5.0, 25 °C | > 60 µg/mL |
| Clc1ccc([C@H]2COC[C@@H](c3cccnc3)N2)cc1 | shake-flask, LC-HRMS | aqueous buffer | 16 h, pH 6.8 | < 4 µM |
| Cc1nc([C@@](C)(CC2CC2)NC(=O)c2cc(OCC(F)(F)F)c(C3CC3)cn2)no1 | LYSA |  |  | 4.2 ± 0.1 µg/mL |
| CNC(=O)c1cc(C)ccc1OCCc1cc(F)cc(F)c1 |  | PBS | 30 (unit not given), pH 7.4 | 50 µM |
| O=C(Nc1ccc(OC(F)(F)F)cc1)NC1CCC(Oc2ccc(C(=O)[O-])cc2)CC1.[Na+] (stereo not shown) |  | simulated gastric fluid | pH 1.0, 37 °C, equilibrium | 0.047 ± 0.003 µg/mL |
| COC1=CC(c2ccc[nH]2)=N/C1=C\c1[nH]c(C)cc1-c1ccc(OC(F)(F)F)cc1.Cl |  | potassium phosphate buffer | 1.5 h, pH 7.4, room temperature, 100 mM buffer | < 3.13 µM |
| CN(C)S(=O)(=O)NCC1CCOC2(CCN(C(=O)C3(c4ccccc4Cl)CCCC3)CC2)C1 (stereo not shown) |  |  | pH 7.4 | 240 µM |
| COC1=CC(c2ccc[nH]2)=N/C1=C\c1cc(Cc2ccc(C(F)(F)F)cc2)c(C)[nH]1.Cl |  | potassium phosphate buffer | 1.5 h, pH 7.4, room temperature, 100 mM buffer | 20.9 µM |
| C#Cc1ccc2c(c1)C(c1ccccn1)=NCc1c(-c3cnco3)ncn1-2 |  | DMF | 24 h, 25 °C, thermodynamic equilibrium | 4030 µg/mL |
| FC(F)(F)[C@@]1(c2ccccc2)COC[C@@H](c2cccnc2)N1 | shake-flask, LC-HRMS | aqueous buffer | 16 h, pH 6.8 | < 4 µM |
| Cn1c(=O)ccc2ccc(F)c(CCNC[C@H]3CN(c4ncc5c(n4)NC(=O)CO5)C(=O)O3)c21 |  | aqueous buffer |  | 250 µM |
| COc1cccc(C2(C(=O)N3CCC4(CC3)CC(CNS(=O)(=O)N(C)C)CCO4)CCCC2)c1 (stereo not shown) |  |  | pH 7.4 | 170 µM |
| COC1=C(OC)/C(=C/c2cc(Cc3ccc(Cl)cc3)c(C)[nH]2)N=C1c1ccc[nH]1.Cl |  | potassium phosphate buffer | 1.5 h, pH 7.4, room temperature, 100 mM buffer | 8.32 µM |
| CC[C@H](C)[C@H](NC(=O)[C@H](CCC(=O)O)NC(=O)[C@H](CCCCN)NC(=O)[C@H](CC(C)C)NC(=O)[C@H](CC(=O)O)NC(=O)[C@@H](NC(=O)[C@H](Cc1ccc(O)cc1)NC(=O)[C@H](CO)NC(=O)[C@H](CCC(=O)O)NC(=O)[C@H](CCC(=O)O)NC(=O)[C@H](CC(C)C)NC(=O)[C@H](CCCCN)NC(=O)[C@H](CCCCN)NC(=O)[C@@H](NC(=O)[C@H](C)NC(=O)[C@H](CCC(=O)O)NC(=O)[C@H](CCC(=O)O)NC(=O)[C@H](CC(C)C)NC(=O)[C@H](CCCCN)NC(=O)[C@H](CCCCN)NC(=O)[C@H](CCSC)NC(=O)[C@H](CCC(=O)O)NC(=O)[C@H](Cc1ccc(O)cc1)NC(=O)[C@H](CCC(=O)O)NC(=O)[C@H](CC(C)C)NC(=O)[C@H](CC(=O)O)NC(=O)[C@H](CC(C)C)NC(=O)[C@H](Cc1ccccc1)NC(=O)[C@@H](NC(=O)[C@@H](NC(=O)[C@H](CC(N)=O)NC(=O)[C@@H](NC(=O)[C@H](CCC(N)=O)NC(=O)[C@H](CC(=O)O)NC(=O)[C@H](CC(C)C)NC(=O)[C@@H](N)CO)[C@@H](C)CC)C(C)C)[C@@H](C)O)[C@@H](C)CC)[C@@H](C)CC)C(=O)O |  | water |  | 19400 ± 238 µM |
| COc1cc(Nc2ncc(F)c(Nc3ccc4c(n3)NC(=O)C(C)(C)O4)n2)cc(OC)c1OC |  | non-kinase assay buffer | 3 h, pH 7.5, 0.1% DMSO | 8.8 µM |
| CC[C@@H]1NC(=O)[C@H](CC(C)C)NC(=O)CNC(=O)CNC(=O)[C@@H](CC(C)C)NC(=O)[C@@H](Cc2ccc(O)cc2)NC(=O)CSC[C@@H](C(=O)O)NC(=O)[C@H](C(C)C)NC(=O)[C@H](CC(C)C)NC(=O)[C@H](C)NC(=O)[C@H]([C@@H](C)CC)NC1=O |  | HBSS | pH 7.4 | 3.98 µM |

For quick reference, copied from above:
| Compound | test | system | conditions | solubility |
| --- | --- | --- | --- | --- |
| COC(=O)OCOc1c2n(ccc1=O)N([C@@H]1c3ccccc3SCc3c1ccc(F)c3F)[C@@H]1COC3(CC3)CN1C2=O |  |  | pH 7 | 3 µg/mL |
| C=C(C)c1ccc(OCCc2cccc(F)c2)c(C(N)=O)c1 |  | PBS | 30 (unit not given), pH 7.4 | 25 µM |
| COC1=CC(c2ccc[nH]2)=N/C1=C\c1[nH]c(C)cc1-c1ccc(OC(F)(F)F)cc1.Cl |  | potassium phosphate buffer | 1.5 h, pH 7.4, room temperature, 100 mM buffer | < 3.13 µM |
| COc1ccc(-c2oc3cc(OC)cc(OC)c3c(=O)c2OC)cc1 | HPLC | ethanol:butylene glycol 100:0 |  | 6250 ± 69 ppm |
| Clc1ccc([C@H]2COC[C@@H](c3cccnc3)N2)cc1 | shake-flask, LC-HRMS | aqueous buffer | 16 h, pH 6.8 | < 4 µM |
